# Results gathered from unrelated publications.
# A part holds a random share of what one study measured.

# Set 1 — method: protein-binding microarray; form: double-stranded DNA, one strand shown; medium: in vitro; concentration: 0.8 µM; notes: whole 60-bp probe, no competitor; direction: higher = stronger binding; all sequences stand within: … GTCTTGATTCGCTTGACGCTGCTG
# Target: Centromere-binding protein 1, full length, N-terminal tag (CBF1, Saccharomyces cerevisiae, UniProt P17106, residues 1-351)
# Sequence of UniProt P17106 (whole entry, looked up): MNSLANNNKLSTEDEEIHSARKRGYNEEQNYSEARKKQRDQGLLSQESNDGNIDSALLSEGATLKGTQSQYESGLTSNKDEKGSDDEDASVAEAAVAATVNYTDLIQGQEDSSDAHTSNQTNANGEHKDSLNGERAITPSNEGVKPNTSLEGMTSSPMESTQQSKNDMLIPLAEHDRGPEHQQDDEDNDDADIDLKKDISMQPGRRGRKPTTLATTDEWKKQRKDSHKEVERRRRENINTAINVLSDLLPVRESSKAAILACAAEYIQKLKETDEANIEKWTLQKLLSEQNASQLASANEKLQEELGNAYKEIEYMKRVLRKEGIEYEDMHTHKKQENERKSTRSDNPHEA
Strand,fluorescence intensity [a.u.]
CTATTGGAAACTGGTCACGTGGATGTGAGTCTATTC,13700
CTACAGTTGGGTCTTCATGTGCCACTCACATGCTTC,745
CTACAATCACCCCCTCGTGAGAATTTAATGTGGTTC,652
GAATAGGCAGAGCATCAGATCATAAAGATAGTGTAG,539
CTAGTTTTTGCGCAGATCGTGATATAAAATGTTTTC,935
CTATTATATAAATATAGTCAGATGAGTGCTTCATTC,581
GAAAAAAGATACAAGAACGTGGCGGACAAGAAGTAG,606
GAAGTTAATGGTCGTCCACGTGTGTATACTACATAG,2590
CTAGCAGGCTTACGGCAGGTGGTGATTATATTTTTC,561
GAACTTTTCTCCAAGCACGAGTTACAGGAAAGGTAG,759
CTATCGCAAATTTCTGTCACCTTCTTCTTTATGTTC,556
GAACACAGGTCCAATCACGCAGCTTCATTACAGTAG,593

# Set 2 — method: universal PBM; form: double-stranded DNA, one strand shown; medium: in vitro; concentration: 600 nM; direction: higher = stronger binding
# Target: Sal-like protein 4, full length isoform A (SALL4, Homo sapiens, UniProt Q9UJQ4, residues 1-1053)
# Sequence of UniProt Q9UJQ4 (whole entry, looked up): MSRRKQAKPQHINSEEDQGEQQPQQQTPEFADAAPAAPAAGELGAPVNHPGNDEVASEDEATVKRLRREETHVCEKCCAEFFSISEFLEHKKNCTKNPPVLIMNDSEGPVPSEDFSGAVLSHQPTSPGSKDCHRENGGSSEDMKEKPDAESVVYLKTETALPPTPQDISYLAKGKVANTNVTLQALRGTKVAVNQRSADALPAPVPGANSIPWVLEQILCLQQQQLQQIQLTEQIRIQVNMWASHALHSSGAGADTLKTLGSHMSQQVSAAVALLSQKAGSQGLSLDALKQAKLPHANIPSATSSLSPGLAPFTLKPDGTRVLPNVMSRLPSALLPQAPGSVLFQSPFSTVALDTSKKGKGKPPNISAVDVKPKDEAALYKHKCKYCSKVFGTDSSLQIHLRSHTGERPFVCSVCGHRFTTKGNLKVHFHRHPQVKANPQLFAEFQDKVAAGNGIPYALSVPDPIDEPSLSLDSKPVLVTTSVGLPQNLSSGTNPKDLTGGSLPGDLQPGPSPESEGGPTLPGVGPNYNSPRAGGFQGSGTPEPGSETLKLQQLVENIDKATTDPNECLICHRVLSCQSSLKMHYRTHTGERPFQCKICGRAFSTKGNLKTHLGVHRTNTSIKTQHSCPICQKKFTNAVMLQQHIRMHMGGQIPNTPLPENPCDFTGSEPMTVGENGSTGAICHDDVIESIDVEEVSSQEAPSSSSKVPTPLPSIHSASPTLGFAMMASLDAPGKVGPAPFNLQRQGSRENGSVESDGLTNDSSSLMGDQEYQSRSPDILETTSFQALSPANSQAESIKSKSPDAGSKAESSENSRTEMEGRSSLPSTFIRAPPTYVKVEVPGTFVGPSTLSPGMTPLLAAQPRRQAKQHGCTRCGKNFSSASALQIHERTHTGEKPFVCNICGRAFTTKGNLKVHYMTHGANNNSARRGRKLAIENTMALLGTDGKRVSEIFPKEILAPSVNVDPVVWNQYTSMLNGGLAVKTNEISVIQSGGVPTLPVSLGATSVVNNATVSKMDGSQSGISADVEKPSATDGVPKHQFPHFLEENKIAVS
# Notes: 8-mer, flanks averaged, mean of replicates
Strand,E-score
ACACGAGT,0.0225
AAGGCTTC,-0.151
GACTGGCC,-0.272
AGCATACT,0.196
CGGTACCG,-0.29
ACCTCGGG,-0.267
ACGTCGCT,-0.224
AGGGTTGA,-0.0725
GTTGAACA,0.115

# Set 3 — method: protein binding microarray; form: double-stranded DNA, one strand shown; medium: in vitro; concentration: not given; baseline: not given; direction: higher = stronger binding
# Target: Histone acetyltransferase KAT6A, winged helix 1, GST fusion (KAT6A, Homo sapiens, UniProt Q92794, residues 1-85)
# Notes: 8-mer, flanks averaged, mean of 2 arrays, mostly near background
# Target sequence (chain): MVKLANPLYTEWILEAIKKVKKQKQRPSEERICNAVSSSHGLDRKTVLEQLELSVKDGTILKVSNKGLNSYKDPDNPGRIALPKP
Strand,E-score
AGAGAATA,-0.0251
CCGCATAA,0.213
ATACCTCC,-0.0777
AAAGGTCC,-0.179
CCTACTTA,-0.175
CCCATCAA,-0.181
ACGAGAGA,-0.142
ATCGCTAG,-0.12
ATACAGAT,-0.137
AATTTTAG,-0.221

# Single results of other studies
Substance,target,assay,system,setting,how to read,quantity,result
"PhoQ, residues 284 288 289 292 302 303 TYGVAM","PhoP, residues 12 14 15 18 19 LFHKL (Escherichia coli, UniProt P23836)","Sort-seq, measured: YFP reporter",E. coli,"PhoQ-PhoP variant library, together with: 10 µM Mg2+","baseline: high Mg2+ state, higher = stronger signaling",fold induction,6.63

# For quick reference, copied from above (set 3):
Strand,E-score
ATACCTCC,-0.0777
AAAGGTCC,-0.179
CCTACTTA,-0.175
